Published values collected from several papers.
Each line is one published result; not all experiments were run side by side. Several values in a cell are separate wells, animals, samples, runs or records.
FGFR3: Fibroblast growth factor receptor 3 (FGFR3, Homo sapiens, UniProt P22607)
Sequence of UniProt P22607 (whole entry, looked up): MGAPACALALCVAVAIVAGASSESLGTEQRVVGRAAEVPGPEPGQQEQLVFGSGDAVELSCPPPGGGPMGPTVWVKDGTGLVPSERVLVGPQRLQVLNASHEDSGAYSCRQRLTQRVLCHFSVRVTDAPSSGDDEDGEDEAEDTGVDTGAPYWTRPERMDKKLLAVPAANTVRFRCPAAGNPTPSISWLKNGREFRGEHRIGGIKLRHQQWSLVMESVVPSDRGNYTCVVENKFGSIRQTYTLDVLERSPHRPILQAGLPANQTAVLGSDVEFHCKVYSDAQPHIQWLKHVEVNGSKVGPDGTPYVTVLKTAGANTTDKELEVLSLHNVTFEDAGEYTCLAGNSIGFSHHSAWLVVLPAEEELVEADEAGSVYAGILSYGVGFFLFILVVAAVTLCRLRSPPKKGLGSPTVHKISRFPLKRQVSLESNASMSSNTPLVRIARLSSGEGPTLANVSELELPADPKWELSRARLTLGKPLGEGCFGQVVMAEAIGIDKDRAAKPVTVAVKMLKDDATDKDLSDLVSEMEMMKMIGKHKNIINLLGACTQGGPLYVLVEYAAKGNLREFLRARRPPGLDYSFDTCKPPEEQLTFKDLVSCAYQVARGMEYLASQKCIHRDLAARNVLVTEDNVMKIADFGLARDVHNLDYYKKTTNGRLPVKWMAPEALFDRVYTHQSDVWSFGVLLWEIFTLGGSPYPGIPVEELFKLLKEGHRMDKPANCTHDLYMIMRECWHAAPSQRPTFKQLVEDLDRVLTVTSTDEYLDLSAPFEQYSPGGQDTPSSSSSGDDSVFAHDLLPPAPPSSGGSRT

Structure (SMILES)	target	test	system	setting	scale	measurement	result
C=CC(=O)Nc1cccc(-c2cnc3[nH]cc(C(=O)NC(C)(C)C)c3n2)c1	FGFR3	kinase activity		0.1 µM		inhibition	23% and 17%
N[C@H]1CC[C@H](Nc2nccc(-c3cccnc3Oc3ccc(NC(=O)NC4CC4)c4ccccc34)n2)CC1	FGFR3	kinobead competition pulldown	HEK293/HCT116 lysate mixture	10 µM, 1 h, 4 °C	lower = stronger competition	log2 LFQ intensity	20.9 and 19.6 and 20 and 20.2
Cc1[nH]nc2c1N=C(c1ccccc1Cl)c1cnc(N3CCOCC3)cc1N2	FGFR3	enzyme activity, inhibitor		0.5 µM		inhibition	> 99%
COc1ccc(NC(=O)Nc2ccc3c(c2)C(=O)N(C(C)CO)CC(C)C(CN(C)Cc2ccc4c(c2)OCO4)O3)cc1 (stereo not drawn)	FGFR3	kinase activity, KinaseProfiler		0.03 µM, species human	relative to: control	remaining activity	101%
COc1cc(Nc2nccc(-c3cnn4nc(OC)ccc34)n2)cc(C(F)(F)F)c1	FGFR3	binding, competition with immobilised ligand		1 µM		remaining binding	100%
CSCC[C@H](NC(C)=O)C(=O)N[C@@H](CO)C(=O)N[C@@H](CO)C(=O)N1CCC[C@H]1C(=O)N1CCC[C@H]1C(=O)N[C@H]1CSCc2cc3cc(c2)CSC[C@@H](C(=O)N[C@@H](CC(C)C)C(=O)N[C@@H](CCCNC(=N)N)C(=O)N[C@@H](CCCNC(=N)N)C(=O)N[C@@H](Cc2ccc(O)cc2)C(=O)NCC(=O)N[C@@H](CO)C(=O)NCC(=O)N[C@@H](CO)C(=O)NCC(=O)N[C@@H](CO)C(=O)N[C@@H](CC(=O)O)C(=O)N[C@@H](Cc2ccc(O)cc2)C(=O)N[C@@H](CCCCN)C(=O)N[C@@H](CC(=O)O)C(=O)N[C@@H](CC(=O)O)C(=O)N[C@@H](CC(=O)O)C(=O)N[C@@H](CC(=O)O)C(=O)N[C@@H](CCCCN)C(N)=O)NC(=O)[C@H](CSC3)NC(=O)CNC(=O)[C@H](CC(C)C)NC(=O)[C@H]([C@@H](C)O)NC1=O	Fibroblast growth factor receptor 3, extracellular domain (FGFR3, Homo sapiens, UniProt P22607)	binding, biolayer interferometry		concentration not given		BLI response	0.0516 RU
O=C=[N][Ru-4]123([n]4c5ccc(O)cc5c5c6c(c7cc(F)c[n+]1c7c54)C(=O)NC6=O)[S+]1CC[S+]2CC[S+]3CC1 (stereo not drawn)	FGFR3	enzyme activity		100 nM, human enzyme, with: 10 µM ATP	relative to: untreated	remaining activity	100%
CN1CCN(c2ccc(Nc3ncc(Cl)c(Nc4ccccc4P(C)(C)=O)n3)cc2Br)CC1	FGFR3	enzyme activity, inhibitor		0.1 µM		inhibition	27.7%
COc1c(OCCCN2CCOCC2)ccc2c1N=C(NC(=O)c1cnc(N)nc1)N1CCN=C21	FGFR3	kinase activity, inhibitor		1 µM	relative to: untreated control	remaining activity	125%
NC(=O)[C@@H](O)C[C@H]1CCc2sc3ncnc(O[C@H]4CC[C@H](N5CCOCC5)CC4)c3c21	FGFR3	enzyme activity, inhibitor		10 µM		inhibition	24%
Cc1nc2c(F)cc(-c3nc(Nc4ccc(CNC(=O)CCCCCCC(=O)NO)cc4)ncc3F)cc2n1C(C)C	FGFR3	enzyme activity, inhibitor		1 µM		inhibition	30%
O=c1c(-c2ccc(Cl)c(CN3CCOCC3)c2)coc2cc(O)ccc12	FGFR3	enzyme activity, inhibitor		1 µM		remaining activity	99%

Repeated from above:
Structure (SMILES)	target	test	system	setting	scale	measurement	result
C=CC(=O)Nc1cccc(-c2cnc3[nH]cc(C(=O)NC(C)(C)C)c3n2)c1	FGFR3	kinase activity		0.1 µM		inhibition	23% and 17%
